Assay results collected from several papers.
Protocols differ between the studies behind these lines.
Polyprotein P1234 nsP2 protease domain: Polyprotein P1234, nsP2 protease domain (Chikungunya virus, UniProt Q8JUX6)
Chain of UniProt Q8JUX6 (whole entry, looked up): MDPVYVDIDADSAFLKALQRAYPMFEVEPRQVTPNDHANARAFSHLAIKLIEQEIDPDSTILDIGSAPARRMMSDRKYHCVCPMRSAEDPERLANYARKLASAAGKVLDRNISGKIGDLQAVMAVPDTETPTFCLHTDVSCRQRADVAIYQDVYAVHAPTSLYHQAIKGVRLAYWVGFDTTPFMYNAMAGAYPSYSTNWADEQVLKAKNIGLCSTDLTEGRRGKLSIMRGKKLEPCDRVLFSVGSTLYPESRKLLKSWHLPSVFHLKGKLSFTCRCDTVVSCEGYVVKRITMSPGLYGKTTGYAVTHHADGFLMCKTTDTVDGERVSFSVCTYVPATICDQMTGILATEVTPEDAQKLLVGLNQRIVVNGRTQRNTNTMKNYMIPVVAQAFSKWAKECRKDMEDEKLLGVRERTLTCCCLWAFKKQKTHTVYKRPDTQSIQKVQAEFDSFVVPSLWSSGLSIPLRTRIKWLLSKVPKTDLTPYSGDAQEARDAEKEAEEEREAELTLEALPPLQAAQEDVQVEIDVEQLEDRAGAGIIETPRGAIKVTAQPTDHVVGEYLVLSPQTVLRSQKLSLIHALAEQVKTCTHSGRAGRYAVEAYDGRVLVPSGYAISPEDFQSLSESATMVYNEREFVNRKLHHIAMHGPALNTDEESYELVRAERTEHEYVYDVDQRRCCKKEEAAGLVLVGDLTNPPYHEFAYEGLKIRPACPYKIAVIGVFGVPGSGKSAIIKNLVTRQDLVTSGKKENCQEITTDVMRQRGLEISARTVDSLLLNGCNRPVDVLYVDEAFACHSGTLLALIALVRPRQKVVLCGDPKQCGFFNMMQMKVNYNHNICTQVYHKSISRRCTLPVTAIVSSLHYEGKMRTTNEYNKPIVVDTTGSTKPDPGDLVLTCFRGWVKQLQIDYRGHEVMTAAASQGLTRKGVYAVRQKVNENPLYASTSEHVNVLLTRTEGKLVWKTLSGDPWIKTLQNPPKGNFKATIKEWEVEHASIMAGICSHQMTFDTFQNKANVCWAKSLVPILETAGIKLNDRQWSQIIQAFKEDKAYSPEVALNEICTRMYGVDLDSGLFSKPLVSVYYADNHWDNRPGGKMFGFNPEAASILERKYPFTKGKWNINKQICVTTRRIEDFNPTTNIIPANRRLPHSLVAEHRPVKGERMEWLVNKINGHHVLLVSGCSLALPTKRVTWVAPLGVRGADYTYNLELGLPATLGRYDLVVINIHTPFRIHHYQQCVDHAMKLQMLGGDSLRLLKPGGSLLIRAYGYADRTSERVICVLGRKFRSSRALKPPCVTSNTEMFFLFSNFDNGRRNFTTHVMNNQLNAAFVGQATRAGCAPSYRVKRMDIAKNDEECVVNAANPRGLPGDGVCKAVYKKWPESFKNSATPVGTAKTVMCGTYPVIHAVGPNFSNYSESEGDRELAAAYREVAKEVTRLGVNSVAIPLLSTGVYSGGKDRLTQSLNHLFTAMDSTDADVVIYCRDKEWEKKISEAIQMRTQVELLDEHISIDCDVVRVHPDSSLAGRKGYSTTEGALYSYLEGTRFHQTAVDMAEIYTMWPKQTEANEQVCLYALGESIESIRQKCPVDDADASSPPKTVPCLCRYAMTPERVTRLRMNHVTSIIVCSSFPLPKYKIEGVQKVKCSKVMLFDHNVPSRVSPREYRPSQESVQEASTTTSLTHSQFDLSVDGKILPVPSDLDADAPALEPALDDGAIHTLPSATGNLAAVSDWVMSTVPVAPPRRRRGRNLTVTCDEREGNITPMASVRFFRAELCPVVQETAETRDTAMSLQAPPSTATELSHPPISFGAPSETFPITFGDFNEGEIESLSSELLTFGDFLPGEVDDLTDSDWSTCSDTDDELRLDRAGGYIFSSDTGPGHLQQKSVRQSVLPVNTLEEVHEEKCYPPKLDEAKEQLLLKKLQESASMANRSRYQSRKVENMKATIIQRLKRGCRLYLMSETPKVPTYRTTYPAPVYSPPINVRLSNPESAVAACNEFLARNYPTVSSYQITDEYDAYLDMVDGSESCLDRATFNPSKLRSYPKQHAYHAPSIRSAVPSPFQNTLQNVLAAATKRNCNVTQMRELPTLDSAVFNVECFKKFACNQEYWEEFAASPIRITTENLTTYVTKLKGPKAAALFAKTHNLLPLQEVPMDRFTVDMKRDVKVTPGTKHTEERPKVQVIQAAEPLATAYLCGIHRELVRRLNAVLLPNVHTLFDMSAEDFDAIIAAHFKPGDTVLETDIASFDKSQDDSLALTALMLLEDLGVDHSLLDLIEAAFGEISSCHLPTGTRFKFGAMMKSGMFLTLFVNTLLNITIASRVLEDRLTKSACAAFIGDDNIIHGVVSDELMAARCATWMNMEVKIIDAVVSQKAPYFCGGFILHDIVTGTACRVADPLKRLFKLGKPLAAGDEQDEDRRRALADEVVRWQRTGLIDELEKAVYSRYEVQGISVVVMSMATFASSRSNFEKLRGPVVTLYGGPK
B1: PPP2R5A D205R/E251K (Homo sapiens, UniProt Q15172-1); chain MSSSSPPAGAASAAISASEKVDGFTRKSVRKAQRQKRSQGSSQFRSQGSQAELHPLPQLKDATSNEQQELFCQKLQQCCILFDFMDSVSDLKSKEIKRATLNELVEYVSTNRGVIVESAYSDIVKMISANIFRTLPPSDNPDFDPEEDEPTLEASWPHIQLVYEFFLRFLESPDFQPSIAKRYIDQKFVQQLLELFDSEDPRERRFLKTVLHRIYGKFLGLRAFIRKQINNIFLRFIYETEHFNGVAELLKILGSIINGFALPLKAEHKQFLMKVLIPMHTAKGLALFHAQLAYCVVQFLEKDTTLTEPVIRGLLKFWPKTCSQKEVMFLGEIEEILDVIEPTQFKKIEEPLFKQISKCVSSSHFQVAERALYFWNNEYILSLIEENIDKILPIMFASLYKISKEHWNPTIVALVYNVLKTLMEMNGKLFDDLTSSYKAERQREKKKELEREELWKKLEELKLKKALEKQNSAYNMHSILSNTSAE
B2: PPP2R5A E106K (Homo sapiens, UniProt Q15172-1); chain MSSSSPPAGAASAAISASEKVDGFTRKSVRKAQRQKRSQGSSQFRSQGSQAELHPLPQLKDATSNEQQELFCQKLQQCCILFDFMDSVSDLKSKEIKRATLNELVKYVSTNRGVIVESAYSDIVKMISANIFRTLPPSDNPDFDPEEDEPTLEASWPHIQLVYEFFLRFLESPDFQPSIAKRYIDQKFVQQLLELFDSEDPRERDFLKTVLHRIYGKFLGLRAFIRKQINNIFLRFIYETEHFNGVAELLEILGSIINGFALPLKAEHKQFLMKVLIPMHTAKGLALFHAQLAYCVVQFLEKDTTLTEPVIRGLLKFWPKTCSQKEVMFLGEIEEILDVIEPTQFKKIEEPLFKQISKCVSSSHFQVAERALYFWNNEYILSLIEENIDKILPIMFASLYKISKEHWNPTIVALVYNVLKTLMEMNGKLFDDLTSSYKAERQREKKKELEREELWKKLEELKLKKALEKQNSAYNMHSILSNTSAE

Substance | tested on | test | test system | conditions | scale | quantity | value
B1 (PPP2R5A D205R/E251K) | Vif/CBFB/ELOB/ELOC (HIV-1/Homo sapiens) | pull-down |  |  |  | binding | binds
ALTPVVVTL | HLA class I histocompatibility antigen, A alpha chain, allele A*02:01 (Homo sapiens, UniProt P04439) |  | peptide | 11 µM |  | dissociation half-life | > 8 h
COc1nc(N)ncc1-c1cn([C@@H]2O[C@](F)(CO[P@@](=O)(N[C@@H](C)C(=O)OC(C)C)Oc3ccccc3)[C@@H](O)[C@H]2O)cn1 | Zaire ebolavirus | viral replication, reporter virus | Huh-7 | 72 h |  | IC50 | > 100 µM
CC(=O)NC(c1ccc(C)cc1)c1ccc2cccnc2c1O (centres unmarked) | MERS-CoV spike VSV pseudovirus | pseudovirus entry |  | 10 µM |  | inhibition | 51%
FTMSPPLQMPSKNY | Polyprotein P1234 nsP2 protease domain | binding, phage display | peptide |  | direction not given | enrichment score | 287
B2 (PPP2R5A E106K) | Vif/CBFB/ELOB/ELOC R127E (HIV-1/Homo sapiens) | pull-down |  |  |  | binding | binds
COc1ncc(-c2cn([C@@H]3O[C@](F)(COC(=O)C(C)C)[C@@H](OC(=O)C(C)C)[C@H]3OC(=O)C(C)C)cn2)c(N)n1 | Zaire ebolavirus | viral replication, reporter virus | Huh-7 | 72 h |  | IC50 | 85.3 µM
YISPQYYGETWVTTIG | Polyprotein P1234 nsP2 protease domain | binding, phage display | peptide |  | direction not given | enrichment score | 104
